# Measurements of several laboratories.
# A part holds a random share of what one study measured. Changes are numbered by the printed parent chain.

# Study 1
# Target: CCND2, cyclin fold, Cln2 fusion (human)
# Method: yeast growth competition, sequencing
# Matrix: yeast
# Notes: weak parent motif
# Baseline: not given
# Direction: higher = stronger binding
# Starting sequence: AKAP12 docking peptide (human); GSPLKKLFTSTGL
Variant,normalised enrichment score
T11A,-0.567
L13A,0.293
F8A,-0.0783
S2A,0.498
K5R,0.207
P3A,0.226
K5R F8L,-0.54
G1A,0.202
T9A,-0.0393
K5A L7A,-0.237

# Study 2
# Target: Centromere-binding protein 1, full length, His-tagged (CBF1, Saccharomyces cerevisiae, UniProt P17106, residues 1-351)
# UniProt P17106, sequence (whole entry, looked up): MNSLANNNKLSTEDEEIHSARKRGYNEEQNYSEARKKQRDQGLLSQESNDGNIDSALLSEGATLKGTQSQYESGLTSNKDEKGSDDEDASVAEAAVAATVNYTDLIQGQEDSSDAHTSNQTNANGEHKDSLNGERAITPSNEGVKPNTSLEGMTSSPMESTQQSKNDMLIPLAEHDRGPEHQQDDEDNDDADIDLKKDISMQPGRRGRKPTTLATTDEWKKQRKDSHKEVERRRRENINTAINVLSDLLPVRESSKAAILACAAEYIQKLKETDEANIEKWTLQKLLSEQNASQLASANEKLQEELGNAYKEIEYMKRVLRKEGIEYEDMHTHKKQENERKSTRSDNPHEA
# Method: competition protein-binding microarray
# Molecule type: double-stranded DNA, one strand shown
# Matrix: in vitro
# Concentration: 2 µM
# Notes: whole 60-bp probe, lowest competitor level
# Together with: Pho4 competitor, 0.05 µM
# Direction: higher = stronger binding
# All sequences stand within: … GTCTTGATTCGCTTGACGCTGCTG
Strand,fluorescence intensity
CTAACGAAGGTTTTTCACGTGATGTACAAGCCAAGT,3900 a.u.
TCTAACTGGGCCCTTCACGTTTCTGACAATAGTTCT,91.3 a.u.
CATACCCAACCTTGGGCCGTGGGTGAAGATATTTGT,49.3 a.u.
TAGTATCTTGCATTGCACGGGCTTTATATTGAGCAA,93.8 a.u.
AAATTACTAAGTTGTATAGTGGGTGACGCCGTATGA,60.2 a.u.
TTTCAAAAAAGGAACTTATCTCTGACAATTTTCGAC,66.2 a.u.
TCGCGCCCTGTCAGGAACATGATGTCCGCCATTTGA,67.6 a.u.
TTTTTTGAACTTCACCACGGGCTATTTTCTTCTTAG,84 a.u.
CAACGATTGATTACGCAGATGACTAACCGCCAGTCA,77.9 a.u.
CCCGTTGAGCAGTGCCCCGTGGAACCGTAAACTATC,70.6 a.u.
CATACCCAACCTTGGGACGTGGGTGAAGATATTTGT,62.6 a.u.
AAAGCGGTAATTTGGAAGGTGGGTGCAGATATCTAT,73.4 a.u.
ACCAAAAGACCAGAGCTCGTGATGGTCGGCTGCACC,137 a.u.
ATCTTTCCGTGGAGTATCGTGACGGGACTAATGATC,209 a.u.
CGTCCTAGTGATTGGTTCGTGGGTGCCATGAGGAAG,75.4 a.u.
CTTCTGTAAATTTGGGTGGTGGGTGGACGCGCCCCG,74.2 a.u.
TGATCATATCAGCTTGTTCATTGCTCTTATTTTTCT,79.4 a.u.
TGCGCAACAACTTTTCACGTGCTATTATGTCTAGAA,1570 a.u.
CATACCCAACCTTGATTCGTGGGTGAAGATATTTGT,75.4 a.u.

# Study 3
# Target: Histone acetyltransferase KAT6A, both winged helices, GST fusion (KAT6A, Homo sapiens, UniProt Q92794, residues 1-181)
# Method: protein binding microarray
# Molecule type: double-stranded DNA, one strand shown
# Matrix: in vitro
# Concentration: not given
# Notes: 8-mer, flanks averaged, mean of 2 arrays, mostly near background
# Baseline: not given
# Direction: higher = stronger binding
# Residues (chain): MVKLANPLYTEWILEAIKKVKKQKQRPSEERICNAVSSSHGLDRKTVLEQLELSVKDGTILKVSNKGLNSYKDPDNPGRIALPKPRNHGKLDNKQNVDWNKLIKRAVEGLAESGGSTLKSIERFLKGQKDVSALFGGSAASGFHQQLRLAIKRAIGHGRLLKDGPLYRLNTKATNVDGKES
Strand,E-score
GGTCTCTA,-0.0239
ACGCAAAA,0.175
AAACGCCC,0.0671
CTGCCCTA,-0.145
AATGATGG,0.0507
CTCAAGTA,-0.174
GTGTGCTA,-0.00724
AATAGTAT,-0.138
ATGATGCG,0.209
GATATAGA,-0.0206
GAGCCGGC,0.235
AACGAAGG,-0.162
AGGGCTAC,-0.132
AGTAGTTG,-0.0535
GCGAATTA,0.0568
AGGATGGC,-0.00933
AATCCGCG,0.275
CCGGATAC,0.106
TCGTAAAA,0.0533
AAAGCTTC,0.0479
ACACCACA,-0.0322
GCCCGAAA,-0.0286
AAAGGTGC,-0.149
CGCCGAGC,0.282

# Study 4
# Target: Interferon regulatory factor 7, full length, phosphomimetic (IRF7, Homo sapiens, UniProt Q92985, residues 1-503, S471D/S472D/S475D/S476D/S477D/S483D/S484D/S487D)
# UniProt Q92985, sequence (whole entry, unmodified, looked up): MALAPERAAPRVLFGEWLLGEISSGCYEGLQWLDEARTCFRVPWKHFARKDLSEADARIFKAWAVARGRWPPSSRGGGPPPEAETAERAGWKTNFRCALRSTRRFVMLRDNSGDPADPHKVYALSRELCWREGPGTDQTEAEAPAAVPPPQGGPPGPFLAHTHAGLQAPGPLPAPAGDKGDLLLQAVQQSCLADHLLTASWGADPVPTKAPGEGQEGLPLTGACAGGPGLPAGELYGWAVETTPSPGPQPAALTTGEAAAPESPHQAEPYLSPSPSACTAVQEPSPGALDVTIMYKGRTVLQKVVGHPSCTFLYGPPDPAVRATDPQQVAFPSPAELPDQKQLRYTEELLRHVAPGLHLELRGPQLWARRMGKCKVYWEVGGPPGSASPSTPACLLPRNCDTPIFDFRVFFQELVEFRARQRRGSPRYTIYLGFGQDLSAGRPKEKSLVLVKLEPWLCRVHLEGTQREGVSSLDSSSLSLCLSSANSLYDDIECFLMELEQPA
# Method: protein-binding microarray
# Molecule type: double-stranded DNA, one strand shown
# Matrix: in vitro
# Concentration: 2200 nM top
# Notes: 60-bp whole probe
# Together with: salmon DNA 0.4 mg/ml
# Baseline: random background probes
# Direction: higher = stronger binding
# All sequences stand within: GCCTAGCAC … GTCTTGATTCGCTTGACGCTGCTG
Strand,fitted relative affinity [z-score]
TTAGGTTTCGGGACTGGCTTAGTGCTA,2.88
GACGATATGAGTATCGAGACGTGCTAG,0.329
TTAGGACTGGGTTATCGGTTAGTGCTA,-0.185
GGGTCTTGCAGTATGGAAAGGTGCTAG,-0.198
TCTCTTCTGCTTCCTCAGGACGTGCTA,1.96
GACGGGATCGACTATCGGGACGTGCTA,-0.198
TTAGAACAGGGGACTGGATTAGTGCTA,-0.436
TCATGTTTGGTTCTTATACTGTGCTAG,2.22
TTAGGACTGGACTATCGGCTAGTGCTA,-0.659
TTAGGTTTGGGGTTTCGGTTAGTGCTA,3.71
TTAGATTTCAGTATCAATTAGTGCTAG,0.565
TCAGGTATCCTTATCCTTTAGTGCTAG,1.25
TTTTTTTTCTACTTCTGTTTGTGCTAG,3.95
ACATCTCTCTTAAATAGGGACGTGCTA,0.401
GACGGTTCCAGTTTCGAGACGTGCTAG,4.23
GTGTACATCTCTCTTAAATAGTGCTAG,1.28
TCCAATTGTCCTTTCACTTTGTGCTAG,4.42
GACGGACTGCTTATCCTGATGTGCTAG,0.405
TACGGTCTCGGTCTCGGGACGTGCTAG,0.176
GACGGTATCGACTATCGGGAGGTGCTA,-0.39
AGTGTGGTCTGTTTCTGATAGTGCTAG,1.28
TTAGGTATCGGGTTTCGGCTAGTGCTA,1.67
AGTGTCATGTTTCTATGGGCGTGCTAG,0.813
TTGTGTCTGGGCATTTTTTTAGTGCTA,-0.959
GACGGTTTAGGGTATCGGGACGTGCTA,0.42

# Study 5
# Target: RNA binding protein fox-1 homolog 2, RRM domain, GST-SBP tag (RBFOX2, Homo sapiens, UniProt O43251-10, residues 100-194)
# Method: RNA Bind-n-Seq
# Molecule type: RNA
# Matrix: in vitro
# Concentration: 365 nM
# Notes: natural RNA segment, single round, ends assumed
# Baseline: no-protein control
# Direction: higher = stronger binding
# All sequences stand within: GGGAGUUCUACAGUCCGACGAUC … UGGAAUUCUCGGGUGCCAA
# Residues (chain): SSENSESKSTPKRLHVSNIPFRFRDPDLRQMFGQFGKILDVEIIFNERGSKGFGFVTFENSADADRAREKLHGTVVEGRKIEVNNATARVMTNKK
Strand,RBNS enrichment (R)
UUGGUGCUUUGUUUAUGGUAGUAGUUUUUCUGUAACACAGAAUAUAGGAUAAGAAAUAAGAAUAAAGUACCUUGACUUUGUUCACAGCAUGUAGGGUGAUGAGCACUCAC,14.9
UGGUAAAUUUAACUGAGGAAUUAAAUCCUUGUUAAUUUUGGUGUAAAGAUUUGUAUCCUGGCCUGUUUAUUCAGGUGGGAGAUGUUCUGUAUAAUUUUGAGGUAUAGCUU,0.454
GGAAUAAGUGAUCAGCAAGUGAACACACUCUAUGUCAACUCUCCUUUUAUCCAGCUGAGAUUUAUGGUAACUUAUUUAAUUAAUGGUCCUGUCUGAUGCAUCCUUGAUGG,0.505
AGAAGGGAGUGAUGUUCUUACUCUGGUGGUCUGUGCUUCUGAACACAGGCUACAUGCACACACUGACAACUACCAAUAAACAGACAGGGGAAGGUCUUUCAUCUCAGCCA,0.657
UCAACUCCUAUUAAUACCCAUAAUCAGUAACCUACCAAGAAAAGCCCGUAUUUGGAAAGUGUGGAGUUUGUGUUGGAAAAGCUGCCUGGAGAGAAGAGUUGUGUCCUUUA,1.07
AUAGCUUCUUAUUAAAAAUUUAAAAAAAGCGUUGAGGAGGAAUCCUUUGGUUAUUCAUACGGAAUUGAUGAUGGAAAAGCAACUGGUUGUCUUCUAAUUGUCUUUGUCUA,0.448
GUUUUACACAUGGAAGCAGCUGAUGUAGAGACUUCAUAUAGGCAGCUGCAGUCCUAAAGUCUCAAGCUAGAGGGUGGGGGCCACGGAAGGAAGGCAGCCUUUCAGGUAGC,0.567
AGGUUACCCUUGUUUUUCAAAGGUAUUUUUUAAACAGAUCUUUAAUAGAAUAUUUAAGCUGUGACUGUAAGAAAUAAACAAGAGUAAACUGACAGGCCUUCCUUCACGUG,0.524
CCGUGACCCCCGGGAUCCCGCCGGUUUUUUCCCCUCCUGGGGGCUCAUGGGGGAGAAUUCCCAGCUCUCCCAACUCUUCCCGCCUCCCACUUUCCCCAGGAACACUCCCG,0.665
UUACUCAGUCCCUUUACCUUAGGUGGAAUCUUCUUAAAUUGAAAUUUUUGGUAAGGAAUUCAUUUCACAGGUAGUGUUUCAGACUCUGAAAGCCCUGACUUGGUUCUUGG,0.625
UGAAAAUAAAGCAGUCUCGGGCAGAGACGCUGUGUGACAUGUUGGCUGACAAAUUAGUCAUUGCUUAAACACAGUUCAUGCAGAUUAAACACAAAUCAAGUUCCAAAUUU,0.305
GGCUUGUGAGUGAUUUUUGUCCAUUCAAUUGUGCCUUCUUUGUAUUAUGAUAAGAUGGGGGUACUUAAGGAGAUCACAAGUUGUGUGAGGAUUGCAUUAACAAACCUAUG,1.89

# Some of these lines once more (study 3):
Strand,E-score
CTGCCCTA,-0.145
AATGATGG,0.0507
CTCAAGTA,-0.174
GTGTGCTA,-0.00724
AATAGTAT,-0.138
ATGATGCG,0.209
